Assay results pooled from the literature.
Each numbered part is a random draw from the data of one study; scales do not carry over between parts. ± gives the spread as reported.
Sequence of UniProt Q99250 (whole entry, looked up): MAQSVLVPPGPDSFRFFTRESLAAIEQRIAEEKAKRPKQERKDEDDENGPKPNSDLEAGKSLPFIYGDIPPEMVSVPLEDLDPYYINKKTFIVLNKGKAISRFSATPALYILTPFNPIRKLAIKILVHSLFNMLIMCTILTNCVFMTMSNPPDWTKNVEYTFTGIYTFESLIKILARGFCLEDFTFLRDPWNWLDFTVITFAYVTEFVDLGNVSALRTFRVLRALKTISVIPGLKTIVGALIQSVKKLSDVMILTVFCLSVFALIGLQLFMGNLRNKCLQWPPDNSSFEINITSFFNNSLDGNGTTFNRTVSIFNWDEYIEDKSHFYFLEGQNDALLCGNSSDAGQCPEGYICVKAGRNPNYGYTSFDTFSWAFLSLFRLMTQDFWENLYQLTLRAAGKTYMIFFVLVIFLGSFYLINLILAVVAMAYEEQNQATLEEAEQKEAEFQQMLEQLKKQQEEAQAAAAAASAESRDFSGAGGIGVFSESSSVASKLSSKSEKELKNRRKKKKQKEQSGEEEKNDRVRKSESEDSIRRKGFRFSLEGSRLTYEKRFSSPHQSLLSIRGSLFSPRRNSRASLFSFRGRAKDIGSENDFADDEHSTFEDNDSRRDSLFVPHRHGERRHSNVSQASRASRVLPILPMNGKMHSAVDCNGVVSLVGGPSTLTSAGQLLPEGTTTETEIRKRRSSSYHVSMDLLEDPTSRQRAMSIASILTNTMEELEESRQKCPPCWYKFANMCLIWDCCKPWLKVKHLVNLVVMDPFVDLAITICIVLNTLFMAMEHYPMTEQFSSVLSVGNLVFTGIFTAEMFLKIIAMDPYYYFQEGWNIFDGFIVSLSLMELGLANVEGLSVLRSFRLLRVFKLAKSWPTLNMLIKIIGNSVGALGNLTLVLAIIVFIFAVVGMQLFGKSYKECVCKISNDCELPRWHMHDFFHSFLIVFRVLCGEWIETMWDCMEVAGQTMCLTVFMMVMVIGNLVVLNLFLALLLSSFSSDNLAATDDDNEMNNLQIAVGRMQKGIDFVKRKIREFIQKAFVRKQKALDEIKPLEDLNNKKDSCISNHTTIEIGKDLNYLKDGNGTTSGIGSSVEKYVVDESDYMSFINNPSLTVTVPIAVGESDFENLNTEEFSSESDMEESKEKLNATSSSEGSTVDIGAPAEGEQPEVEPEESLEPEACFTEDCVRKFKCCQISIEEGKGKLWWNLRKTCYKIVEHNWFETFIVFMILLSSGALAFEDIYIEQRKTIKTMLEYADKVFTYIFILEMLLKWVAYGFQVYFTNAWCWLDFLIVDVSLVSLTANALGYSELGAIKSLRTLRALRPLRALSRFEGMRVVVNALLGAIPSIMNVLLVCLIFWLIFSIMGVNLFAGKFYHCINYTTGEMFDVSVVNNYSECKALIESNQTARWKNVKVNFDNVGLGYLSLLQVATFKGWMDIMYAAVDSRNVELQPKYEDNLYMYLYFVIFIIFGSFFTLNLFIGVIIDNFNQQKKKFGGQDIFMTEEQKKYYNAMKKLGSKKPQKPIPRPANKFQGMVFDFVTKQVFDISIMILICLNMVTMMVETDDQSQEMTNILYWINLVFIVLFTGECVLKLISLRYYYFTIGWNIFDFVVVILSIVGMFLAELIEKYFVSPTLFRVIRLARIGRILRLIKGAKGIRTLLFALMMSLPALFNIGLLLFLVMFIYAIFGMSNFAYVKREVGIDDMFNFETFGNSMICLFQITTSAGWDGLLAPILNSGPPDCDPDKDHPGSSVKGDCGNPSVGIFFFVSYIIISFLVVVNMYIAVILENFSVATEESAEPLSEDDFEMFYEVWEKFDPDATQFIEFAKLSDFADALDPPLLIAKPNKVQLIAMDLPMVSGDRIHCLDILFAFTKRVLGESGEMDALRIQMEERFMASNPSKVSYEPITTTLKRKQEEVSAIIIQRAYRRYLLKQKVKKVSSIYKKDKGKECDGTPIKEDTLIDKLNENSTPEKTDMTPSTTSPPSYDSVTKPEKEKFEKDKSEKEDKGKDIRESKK

Set 1 — host: Kunming mice both sexes; route: intraperitoneal; time: 7 days; quantity: LD50
C=CC12CNC3C4COC(CC41)C1(C(=O)Nc4ccccc41)C32 (stereo not drawn): > 30 mg/kg
C=CC12CN(C)C3C4COC(CC41)C1(C(=O)N(OC)c4ccccc41)C32 (stereo not drawn): > 30 mg/kg
CC=C1CN(C)C2CC3(C(=O)Nc4ccccc43)C3CC1C2CO3 (stereo not drawn): > 30 mg/kg
CON1C(=O)C2(CC3N=C(C(C)=O)C4C(O)C2OCC34)c2ccccc21 (stereo not drawn): > 30 mg/kg

Mixed results
CC[C@H](C)[C@H](NC(=O)[C@H](C)NC(=O)[C@H](CCC(N)=O)NC(=O)[C@@H](NC(=O)[C@@H](NC(=O)[C@@H]1CCCN1C(=O)[C@@H]1CCCN1C(=O)[C@@H](NC(=O)[C@H](CCSC)NC(=O)[C@H](CC(C)C)NC(=O)[C@H](CC(C)C)NC(=O)[C@H](CO)NC(=O)CNC(=O)[C@H](CC(C)C)NC(=O)[C@@H](NC(=O)[C@H](CC(C)C)NC(=O)[C@H](CC(C)C)NC(=O)[C@@H]1CCCN1C(=O)[C@H](CC(C)C)NC(=O)[C@@H](N)Cc1ccccc1)[C@@H](C)CC)[C@@H](C)O)C(C)C)[C@@H](C)CC)C(=O)N[C@@H](Cc1c[nH]cn1)C(=O)N[C@@H](CC(=O)O)C(=O)N[C@@H](C)C(=O)N[C@@H](CCC(N)=O)C(=O)N[C@@H](CCCNC(=N)N)C(N)=O  EC50 (Sodium channel protein type 2 subunit alpha (SCN2A, Homo sapiens, UniProt Q99250); sodium current, agonist, whole-cell patch clamp; HEK293 stably expressing NaV1.2; 0.1% DMSO, hold -100 mV): 410 ± 33 nM
CC[C@H](C)[C@H](NC(=O)CNC(=O)[C@H](C)N)C(=O)NCC(=O)N[C@@H](C)C(=O)N[C@H](C(=O)N[C@@H](CC(C)C)C(=O)N[C@@H](CCCCN)C(=O)N[C@H](C(=O)N[C@@H](CC(C)C)C(=O)N[C@H](C(=O)N[C@H](C(=O)NCC(=O)N[C@@H](CC(C)C)C(=O)N1CCC[C@H]1C(=O)N[C@@H](C)C(=O)N[C@@H](CC(C)C)C(=O)N[C@H](C(=O)N[C@@H](CO)C(=O)N[C@@H](Cc1c[nH]c2ccccc12)C(=O)N[C@H](C(=O)N[C@@H](CCCCN)C(=O)N[C@@H](CCCNC(=N)N)C(=O)N[C@@H](CCCCN)C(=O)N[C@@H](CCCNC(=N)N)C(=O)N[C@@H](CCC(N)=O)C(=O)N[C@@H](CCC(N)=O)C(N)=O)[C@@H](C)CC)[C@@H](C)CC)[C@@H](C)O)[C@@H](C)O)C(C)C)C(C)C  HD50 (human erythrocytes, washed; 1 h, 37 °C, 2% v/v RBC suspension): 1.5 ± 0.1 µmol/L
CC[C@H](C)[C@H](NC(=O)[C@H](Cc1ccccc1)NC(=O)[C@H](CC(=O)O)NC(=O)[C@H](CCCCN)NC(=O)[C@H](C)NC(=O)[C@H](CCCCN)NC(=O)[C@H](CC(N)=O)NC(=O)[C@H](CC(C)C)NC(=O)[C@H](Cc1c[nH]c2ccccc12)NC(=O)[C@H](CCC(=O)O)NC(=O)[C@H](CCCCN)NC(=O)[C@@H](NC(=O)CNC(=O)[C@H](C)N)[C@@H](C)O)C(=O)N[C@@H](CCCCN)C(=O)N[C@@H](CCC(=O)O)C(=O)N[C@@H](CCCCN)C(=O)NCC(=O)N[C@@H](CC(C)C)C(=O)N[C@@H](CCC(=O)O)C(=O)N[C@@H](CCSC)C(=O)N[C@@H](CC(C)C)C(=O)N[C@@H](CO)C(=O)N[C@@H](C)C(=O)N[C@@H](C)C(=O)N[C@@H](C)C(=O)N[C@@H](CC(N)=O)C(=O)N[C@@H](C)C(=O)N[C@@H](C)C(=O)N[C@@H](CC(C)C)C(=O)N[C@@H](CC(N)=O)C(=O)O  LD50 (Lucilia cuprina; thorax injection, 24 h): > 50 nmol/g
CC[C@H](C)[C@H](NC(=O)CNC(=O)[C@H](C)NC(=O)[C@@H]1CCCN1C(=O)CNC(=O)[C@H](C)NC(=O)[C@H](CCC(=O)O)NC(=O)[C@H](C)NC(=O)[C@H](CC(=O)O)NC(=O)[C@H](C)NC(=O)[C@H](CCC(=O)O)NC(=O)[C@H](C)NC(=O)[C@H](CCC(=O)O)NC(=O)[C@@H]1CCCN1C(=O)[C@@H](N)CCC(=O)O)C(=O)NCC(=O)N[C@@H](C)C(=O)N[C@H](C(=O)N[C@@H](CC(C)C)C(=O)N[C@@H](CCCCN)C(=O)N[C@H](C(=O)N[C@@H](CC(C)C)C(=O)N[C@H](C(=O)N[C@H](C(=O)NCC(=O)N[C@@H](CC(C)C)C(=O)N1CCC[C@H]1C(=O)N[C@@H](C)C(=O)N[C@@H](CC(C)C)C(=O)N[C@H](C(=O)N[C@@H](CO)C(=O)N[C@@H](Cc1c[nH]c2ccccc12)C(=O)N[C@H](C(=O)N[C@@H](CCCCN)C(=O)N[C@@H](CCCNC(=N)N)C(=O)N[C@@H](CCCCN)C(=O)N[C@@H](CCCNC(=N)N)C(=O)N[C@@H](CCC(N)=O)C(=O)N[C@@H](CCC(N)=O)C(N)=O)[C@@H](C)CC)[C@@H](C)CC)[C@@H](C)O)[C@@H](C)O)C(C)C)C(C)C  HD50 (human erythrocytes, washed; 1 h, 37 °C, 2% v/v RBC suspension): 54.2 ± 2.2 µmol/L
CC(C)C[C@@H]1NC(=O)[C@H](CCCNC(=N)N)NC(=O)[C@@H]2CCCN2C(=O)[C@@H]2CSSC[C@H](NC(=O)CNC(=O)[C@@H]3CCCN3C(=O)[C@H](CCCCN)NC(=O)[C@H](CC(=O)O)NC(=O)[C@@H](NC(=O)CN)C(C)C)C(=O)N[C@@H](CCCNC(=N)N)C(=O)N[C@@H](Cc3ccc(O)cc3)C(=O)N[C@@H](CC(C)C)C(=O)N[C@@H](Cc3ccccc3)C(=O)NCC(=O)NCC(=O)N[C@H]3CSSC[C@H](NC(=O)CNC1=O)C(=O)N[C@@H](CCCCN)C(=O)NCC(=O)N[C@@H](CCCCN)C(=O)NCC(=O)N[C@@H](Cc1c[nH]cn1)C(=O)N[C@@H](CC(=O)O)C(=O)N[C@@H](Cc1ccc(O)cc1)C(=O)N[C@H](C(=O)N[C@@H](C)C(=O)N[C@@H](Cc1c[nH]c4ccccc14)C(=O)N[C@@H](CC(=O)O)C(=O)NCC(=O)N[C@H](C(=O)N[C@@H](Cc1ccccc1)C(=O)N[C@@H](CO)C(=O)N[C@@H](CC(=O)O)C(=O)O)[C@@H](C)O)CSSC[C@H](NC(=O)[C@H](CC(=O)O)NC(=O)[C@H](CC(=O)O)NC(=O)[C@H](CC(=O)O)NC(=O)[C@H](CO)NC(=O)[C@H](CCCCN)NC3=O)C(=O)N2  nocifensive behaviour duration (adult mice; intraplantar, dose not given): ~15 min

Some of these lines once more (set 1):
C=CC12CNC3C4COC(CC41)C1(C(=O)Nc4ccccc41)C32 (stereo not drawn): > 30 mg/kg
